Results of several laboratories.
Parts stem from different laboratories: compare values within a part only.
Chain of UniProt P80192 (whole entry, looked up): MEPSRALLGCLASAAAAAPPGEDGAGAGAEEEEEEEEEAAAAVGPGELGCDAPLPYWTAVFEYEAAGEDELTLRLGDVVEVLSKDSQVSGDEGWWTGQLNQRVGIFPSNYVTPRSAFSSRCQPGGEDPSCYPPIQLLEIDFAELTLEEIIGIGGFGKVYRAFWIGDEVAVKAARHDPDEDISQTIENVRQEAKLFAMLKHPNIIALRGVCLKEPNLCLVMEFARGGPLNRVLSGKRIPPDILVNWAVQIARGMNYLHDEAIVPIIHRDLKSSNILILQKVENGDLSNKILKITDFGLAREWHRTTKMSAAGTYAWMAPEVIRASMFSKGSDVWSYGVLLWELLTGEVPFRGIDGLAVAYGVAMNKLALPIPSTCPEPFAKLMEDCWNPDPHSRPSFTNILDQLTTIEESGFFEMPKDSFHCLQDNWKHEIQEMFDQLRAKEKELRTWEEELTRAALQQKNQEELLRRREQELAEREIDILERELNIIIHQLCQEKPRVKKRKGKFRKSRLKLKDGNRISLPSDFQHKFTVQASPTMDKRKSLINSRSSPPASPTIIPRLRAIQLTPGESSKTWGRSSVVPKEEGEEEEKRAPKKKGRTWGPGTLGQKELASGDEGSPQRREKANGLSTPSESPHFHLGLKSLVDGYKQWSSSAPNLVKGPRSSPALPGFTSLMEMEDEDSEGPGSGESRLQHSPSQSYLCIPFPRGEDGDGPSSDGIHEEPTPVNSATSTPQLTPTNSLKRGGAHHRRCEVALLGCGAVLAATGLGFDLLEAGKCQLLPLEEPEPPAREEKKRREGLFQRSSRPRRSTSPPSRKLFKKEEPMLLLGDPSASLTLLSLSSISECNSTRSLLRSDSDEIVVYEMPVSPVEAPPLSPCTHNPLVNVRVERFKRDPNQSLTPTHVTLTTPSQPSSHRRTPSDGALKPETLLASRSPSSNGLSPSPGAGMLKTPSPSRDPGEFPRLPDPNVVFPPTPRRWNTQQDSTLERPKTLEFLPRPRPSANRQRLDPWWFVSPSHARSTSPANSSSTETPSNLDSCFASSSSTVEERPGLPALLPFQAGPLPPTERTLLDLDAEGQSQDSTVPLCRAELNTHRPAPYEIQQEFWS
Chain of UniProt P41743 (whole entry, looked up): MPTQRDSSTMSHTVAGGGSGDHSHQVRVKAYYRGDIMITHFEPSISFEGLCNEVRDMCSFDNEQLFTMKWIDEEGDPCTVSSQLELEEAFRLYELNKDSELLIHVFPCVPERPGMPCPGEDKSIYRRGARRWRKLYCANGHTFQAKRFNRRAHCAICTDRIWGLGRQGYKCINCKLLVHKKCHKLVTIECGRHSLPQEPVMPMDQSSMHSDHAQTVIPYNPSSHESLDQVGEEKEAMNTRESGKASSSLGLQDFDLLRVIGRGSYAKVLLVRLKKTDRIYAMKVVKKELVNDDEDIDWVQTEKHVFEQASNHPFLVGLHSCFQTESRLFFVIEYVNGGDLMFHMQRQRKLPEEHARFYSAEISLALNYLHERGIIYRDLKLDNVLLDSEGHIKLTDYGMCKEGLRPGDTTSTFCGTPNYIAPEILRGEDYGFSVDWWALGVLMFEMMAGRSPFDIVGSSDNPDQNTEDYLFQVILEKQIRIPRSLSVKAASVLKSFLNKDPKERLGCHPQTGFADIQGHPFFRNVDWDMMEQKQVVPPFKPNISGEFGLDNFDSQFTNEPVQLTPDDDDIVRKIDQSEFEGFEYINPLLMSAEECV
Chain of UniProt P35590 (whole entry, looked up): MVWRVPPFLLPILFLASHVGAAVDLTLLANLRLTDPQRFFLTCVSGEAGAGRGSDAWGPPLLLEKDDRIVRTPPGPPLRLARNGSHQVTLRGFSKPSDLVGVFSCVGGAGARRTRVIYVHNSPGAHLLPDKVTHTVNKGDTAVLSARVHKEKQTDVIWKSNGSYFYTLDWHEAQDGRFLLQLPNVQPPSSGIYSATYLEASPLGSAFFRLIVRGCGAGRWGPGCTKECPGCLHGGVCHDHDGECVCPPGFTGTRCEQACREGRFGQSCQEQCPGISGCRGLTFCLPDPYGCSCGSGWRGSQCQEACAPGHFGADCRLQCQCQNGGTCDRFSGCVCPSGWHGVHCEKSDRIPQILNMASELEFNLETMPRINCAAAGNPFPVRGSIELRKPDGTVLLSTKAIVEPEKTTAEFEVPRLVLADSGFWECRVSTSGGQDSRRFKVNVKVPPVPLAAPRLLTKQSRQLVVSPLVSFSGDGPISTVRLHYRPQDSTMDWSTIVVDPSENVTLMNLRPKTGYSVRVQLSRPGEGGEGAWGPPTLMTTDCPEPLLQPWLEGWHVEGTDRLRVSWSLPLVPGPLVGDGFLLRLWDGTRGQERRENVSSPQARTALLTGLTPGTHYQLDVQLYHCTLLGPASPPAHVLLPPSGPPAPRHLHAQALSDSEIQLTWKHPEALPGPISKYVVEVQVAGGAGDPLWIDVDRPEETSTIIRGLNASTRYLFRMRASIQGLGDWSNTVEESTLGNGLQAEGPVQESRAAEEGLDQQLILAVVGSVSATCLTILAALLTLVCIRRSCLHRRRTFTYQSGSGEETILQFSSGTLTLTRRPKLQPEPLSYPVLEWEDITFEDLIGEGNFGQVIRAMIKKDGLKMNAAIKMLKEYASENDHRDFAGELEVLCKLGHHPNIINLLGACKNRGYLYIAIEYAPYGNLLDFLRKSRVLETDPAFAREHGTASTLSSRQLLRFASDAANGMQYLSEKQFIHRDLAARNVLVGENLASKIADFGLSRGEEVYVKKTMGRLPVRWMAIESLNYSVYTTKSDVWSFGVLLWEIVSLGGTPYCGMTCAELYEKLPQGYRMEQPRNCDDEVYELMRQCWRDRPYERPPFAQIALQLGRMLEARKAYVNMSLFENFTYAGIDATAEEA
Chain of UniProt Q9HBH9 (whole entry, looked up): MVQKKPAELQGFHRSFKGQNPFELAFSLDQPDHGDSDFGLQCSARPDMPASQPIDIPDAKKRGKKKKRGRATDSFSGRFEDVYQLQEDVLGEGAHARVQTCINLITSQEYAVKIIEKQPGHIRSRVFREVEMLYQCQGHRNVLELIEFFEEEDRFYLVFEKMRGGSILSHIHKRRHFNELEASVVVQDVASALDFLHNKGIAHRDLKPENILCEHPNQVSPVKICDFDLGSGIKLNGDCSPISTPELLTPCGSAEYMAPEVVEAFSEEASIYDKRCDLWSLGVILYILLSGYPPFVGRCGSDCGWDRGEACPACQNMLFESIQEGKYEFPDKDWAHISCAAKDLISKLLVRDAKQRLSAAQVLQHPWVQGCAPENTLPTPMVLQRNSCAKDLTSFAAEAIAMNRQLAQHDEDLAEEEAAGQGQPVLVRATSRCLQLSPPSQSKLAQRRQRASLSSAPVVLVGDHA
Chain of UniProt P48736 (whole entry, looked up): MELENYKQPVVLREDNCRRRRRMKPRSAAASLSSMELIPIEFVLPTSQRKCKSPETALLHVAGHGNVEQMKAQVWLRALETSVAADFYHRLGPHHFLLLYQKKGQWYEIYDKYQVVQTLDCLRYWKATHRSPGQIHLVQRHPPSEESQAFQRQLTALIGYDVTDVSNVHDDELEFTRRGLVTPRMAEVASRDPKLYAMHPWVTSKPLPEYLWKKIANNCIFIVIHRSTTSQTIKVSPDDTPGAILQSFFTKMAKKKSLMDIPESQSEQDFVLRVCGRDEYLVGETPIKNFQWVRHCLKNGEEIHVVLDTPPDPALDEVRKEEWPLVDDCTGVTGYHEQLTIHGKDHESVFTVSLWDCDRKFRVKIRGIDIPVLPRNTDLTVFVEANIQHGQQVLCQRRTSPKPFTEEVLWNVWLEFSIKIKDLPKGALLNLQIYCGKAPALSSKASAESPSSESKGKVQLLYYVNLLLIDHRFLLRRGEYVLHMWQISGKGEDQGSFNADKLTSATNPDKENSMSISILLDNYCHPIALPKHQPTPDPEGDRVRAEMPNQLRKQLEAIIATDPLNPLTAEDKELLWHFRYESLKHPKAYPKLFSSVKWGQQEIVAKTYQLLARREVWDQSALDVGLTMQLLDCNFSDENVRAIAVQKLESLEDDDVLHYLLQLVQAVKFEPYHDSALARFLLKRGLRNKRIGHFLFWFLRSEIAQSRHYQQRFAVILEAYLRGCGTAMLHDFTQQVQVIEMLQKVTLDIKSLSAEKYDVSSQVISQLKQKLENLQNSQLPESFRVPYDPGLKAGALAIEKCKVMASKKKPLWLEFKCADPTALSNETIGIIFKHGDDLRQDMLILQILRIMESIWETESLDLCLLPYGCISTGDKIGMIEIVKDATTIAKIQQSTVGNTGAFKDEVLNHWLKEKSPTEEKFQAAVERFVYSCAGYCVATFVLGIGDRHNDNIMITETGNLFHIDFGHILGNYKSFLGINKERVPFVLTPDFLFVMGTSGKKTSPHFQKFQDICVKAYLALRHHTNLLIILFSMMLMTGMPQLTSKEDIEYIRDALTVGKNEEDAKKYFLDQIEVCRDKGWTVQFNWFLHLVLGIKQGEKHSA

Sample 1 — effect on: cell-free assay; method: competition with immobilised ligand; tested at: 1 µM
Compound: COc1ccc2c(O[C@@H]3C[C@H]4C(=O)N[C@]5(C(=O)O)CC5/C=C\CCCCC[C@H](NC(=O)OC5CCCC5)C(=O)N4C3)cc(-c3csc(NC(=O)C(C)C)n3)nc2c1C (stereo partly shown)
target	remaining binding [%]
Mitogen-activated protein kinase kinase kinase 9 (MAP3K9, Homo sapiens, UniProt P80192)	100
Tyrosine-protein kinase receptor UFO (AXL, Homo sapiens, UniProt P30530)	97
Phosphatidylinositol 4,5-bisphosphate 3-kinase catalytic subunit gamma isoform (PIK3CG, Homo sapiens, UniProt P48736)	65
Tyrosine-protein kinase JAK1, JH1 (JAK1, Homo sapiens, UniProt P23458)	100
Tyrosine-protein kinase receptor Tie-1 (TIE1, Homo sapiens, UniProt P35590)	100
Tyrosine-protein kinase ABL1, phosphorylated (ABL1, Homo sapiens, UniProt P00519, T315I)	87

Sample 2 — SMILES: O=C1NC(=O)/C(=C/c2ccc3c(c2)OC(F)(F)O3)S1; effect on: enzyme activity; action: inhibitor; tested at: 0.5 µM; reference: control
target	remaining activity [%]
MAP kinase-interacting serine/threonine-protein kinase 2 (MKNK2, Homo sapiens, UniProt Q9HBH9)	98.3
Leucine-rich repeat serine/threonine-protein kinase 2 (LRRK2, Homo sapiens, UniProt Q5S007)	103
Mast/stem cell growth factor receptor Kit (KIT, Homo sapiens, UniProt P10721)	93.4
Protein kinase C iota type (PRKCI, Homo sapiens, UniProt P41743)	95.9

Sample 3 — method: protein-binding microarray; form: double-stranded DNA, one strand shown; matrix: in vitro; tested at: 0.8 µM; setting: whole 60-bp probe, no competitor; direction: higher = stronger binding; constant ends, left off below: … GTCTTGATTCGCTTGACGCTGCTG
Target: Centromere-binding protein 1, full length, N-terminal tag (CBF1, Saccharomyces cerevisiae, UniProt P17106, residues 1-351)
Chain of UniProt P17106 (whole entry, looked up): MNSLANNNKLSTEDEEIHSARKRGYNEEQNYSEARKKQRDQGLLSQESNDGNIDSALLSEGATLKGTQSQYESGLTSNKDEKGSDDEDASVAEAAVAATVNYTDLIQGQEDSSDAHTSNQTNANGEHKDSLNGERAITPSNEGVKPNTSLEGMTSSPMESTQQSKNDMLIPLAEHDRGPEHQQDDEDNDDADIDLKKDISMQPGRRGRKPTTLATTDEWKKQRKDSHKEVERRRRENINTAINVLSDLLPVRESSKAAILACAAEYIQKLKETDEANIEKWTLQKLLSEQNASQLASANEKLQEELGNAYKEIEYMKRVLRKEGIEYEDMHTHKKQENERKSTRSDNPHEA
Oligonucleotide	fluorescence intensity
GAACACATATATCATCACCAATTACCATTTTCATAG	547 a.u.
GAAGATGCGGTAATTCAACACGTGAATTTCAGCTAG	2990 a.u.
CTATTCAACTTATTTAACGTGCCCAATGGAAATTTC	569 a.u.
CTACCCTTCTCACCCCCCGTGTTACGCAAAGAATTC	609 a.u.
CCTAACTACTATAGTCACATAAGATAGCTTCGTACA	537 a.u.
GAACTGAAAGCGGCGCACGAGAACGCGCTTTTCTAG	566 a.u.
CCTAACTACTATATTCCCGTGGAATAGCTTCGTACA	514 a.u.
GAAGAAGCTAGGGAGCTCACCCGCGATATTCTGTAG	490 a.u.

Other studies, line by line
Molecule	target	assay	test system	setting	how to read	endpoint	result
PhoQ, residues 284 288 289 292 302 303 SNGLAW	PhoP, residues 12 14 15 18 19 AQCLL (Escherichia coli, UniProt P23836)	Sort-seq, measured: YFP reporter	E. coli	PhoQ-PhoP variant library, together with: 10 µM Mg2+	reference: high Mg2+ state, higher = stronger signaling	fold induction	9.62

Repeated from above (sample 3):
Oligonucleotide	fluorescence intensity
CTACCCTTCTCACCCCCCGTGTTACGCAAAGAATTC	609 a.u.
